Literature values as cited in several papers.

Compound = CC(=O)Nc1c(C(C)=O)c(=O)n(C)c2nc(-c3ccc(Cl)cc3Cl)c(-c3ccc(Cl)cc3)cc12; tested on = SLC18A2; test = MSD Pharma Taiwan panel screen; quantity = Ki; result = 648 nM
Compound = Cc1c(C)c2c(c(C)c1O)CCC(C)(COc1ccc(CC3SC(=O)NC3=O)cc1)O2 (centres unmarked); tested on = primary human hepatocyte spheroids; test = cell viability; setting = 3 days; quantity = IC50; result = < 40000 nM
Compound = COc1cccc(CNC(=O)c2nc3scc(COCc4ccc(C(=O)O)cc4)c3c(=O)[nH]2)c1; tested on = MMP13 (human); test = cellular activity; quantity = IC50; result = < 100 nM
Compound = NC(=O)[C@@H]1CC[C@@H]2CN1C(=O)N2OS(=O)(=O)O; test system = healthy volunteers, epithelial lining fluid; setting = dose not given, geometric mean; quantity = Cmax; result = 5100 ng/mL
Compound = O=C(NCc1ncc(C(F)(F)F)cc1Cl)c1ccc2c(c1)C1(CCS(=O)(=O)CC1)[C@@H](C1CC1)N2S(=O)(=O)c1ccc(F)cc1; tested on = MAPK3; test = enzyme activity, Eurofins-Panlabs panel; quantity = IC50; result = 4870 nM
Compound = Cc1cccc(CN2CCN(C(c3ccccc3)c3ccc(Cl)cc3)CC2)c1.Cl.Cl (centres unmarked); tested on = Cryptosporidium parvum; test = high-throughput screen; setting = concentration not given; quantity = activity; result = inactive
Compound = CN(C)CC#Cc1ccc(OCCCc2sc(N3CCc4cccc(C(=O)Nc5nc6ccccc6s5)c4C3)nc2C(=O)O)c(F)c1; tested on = BCL2L1; test = biochemical; quantity = IC50; result = 0.55 nM
Compound = NC(N)=Nc1nc(CSCCC(N)=NS(N)(=O)=O)cs1; test system = human; setting = concentration not given; quantity = Cmax; result = 20 to 300 nM

For quick reference, copied from above:
Compound = NC(N)=Nc1nc(CSCCC(N)=NS(N)(=O)=O)cs1; test system = human; setting = concentration not given; quantity = Cmax; result = 20 to 300 nM
